Experimental data from different studies.
Every numbered part comes from another study and shows a few of its results, in no order. Substitutions count along the parent as printed.

Series 1
Target: Interferon regulatory factor 5, full length, phosphomimetic (IRF5, Homo sapiens, UniProt Q13568-2, residues 1-514, K96S/S451D/S453D/S456D/S462D)
Technique: protein-binding microarray
Molecule type: double-stranded DNA, one strand shown
Medium: in vitro
Concentration: 250 nM
Notes: 60-bp whole probe
Together with: salmon DNA 0.4 mg/ml
Baseline: random background probes
Reading: higher = stronger binding
Constant ends, left off below: GCCTAGCAC … GTCTTGATTCGCTTGACGCTGCTG
| Strand | log fluorescence |
| --- | --- |
| TTAGAACTGAGTATCGATTGGTGCTAG | 6.59 z-score |
| TTAGAACTGAGTCTCGATAAGTGCTAG | 0.746 z-score |
| TTAGATATCGGGACGGGATTAGTGCTA | 1.21 z-score |
| GACGGTATCCTTCGCCTGACGTGCTAG | 0.203 z-score |
| TTAGGACGGGGTATCGGTTAGTGCTAG | 2.74 z-score |
| GACGATTGCAGTTTCGAGACGTGCTAG | 4.18 z-score |
| GACGGACTGCTTTTCCTGAAGTGCTAG | -0.264 z-score |
| GACGGACTGGGACTGCGGACGTGCTAG | -0.642 z-score |
| TTAGGACTGGACTTTCGGTAAGTGCTA | 8.55 z-score |
| GACGGTTTCGGTTTTCGGGACGTGCTA | 9.88 z-score |
| GACGATTTCGGGTAACGAGACGTGCTA | 4.36 z-score |
| GACGGTTTCCTTATCGTGACGTGCTAG | 0.873 z-score |
| TTAGATTTCCGGTATCGATTAGTGCTA | 6.08 z-score |
| TTAGGTCTCGGCATCGGTTAGTGCTAG | 0.172 z-score |
| CTATTTTTCACCTGCACTCAGTGCTAG | 1.47 z-score |
| TCAAGTTTATTTATTTTACTGTGCTAG | 0.746 z-score |
| TTAGGGTTCGGGACTGGGTTAGTGCTA | -0.285 z-score |
| TCAAATTTCCCTCTGCTACTGTGCTAG | 0.694 z-score |

Series 2
Target: RNA binding protein fox-1 homolog 2, RRM domain, GST-SBP tag (RBFOX2, Homo sapiens, UniProt O43251-10, residues 100-194)
Technique: RNA Bind-n-Seq
Molecule type: RNA
Medium: in vitro
Concentration: 365 nM
Notes: natural RNA segment, single round, ends assumed
Baseline: no-protein control
Reading: higher = stronger binding
Constant ends, left off below: GGGAGUUCUACAGUCCGACGAUC … UGGAAUUCUCGGGUGCCAA
Target sequence (chain): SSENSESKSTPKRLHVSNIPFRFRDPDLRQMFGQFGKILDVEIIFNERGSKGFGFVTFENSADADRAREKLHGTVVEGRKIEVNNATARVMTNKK
| Strand | RBNS enrichment (R) |
| --- | --- |
| GCCUUUUUAAAAGAGGGAUGGGAGGAUAUUACAGUAAGAAAUUAGGCUUUCUAAAAGUAUGAAACAUCCUUCAACUGGGCUCUCUUGUUAAUAGGACAUCAUAUGGUAAU | 0.295 |
| GGGUUAGAUGUUGCCAUGUGUUUUAGAUGGUUUCUUGCAAGCAUGCUUGUGAAAAUGUGUUCUCGGAGUGUGUAUGCCAAGAGUGCACCCAUGGUACCAAUCAUGAAUCU | 1.07 |
| GCCUCAUGAUUGUCUGGAGUGUAUCAUGAAACAAAAGUCCACCAUGGAUUGCAAGCUUUAGAACGAAUCAAGCAUUUUCCCUAGCCAGGCAAGGCAUUCGUUUCCUUACU | 0.266 |
| UUAGUCAACAGAAACUAUUUUAGGGUAUGUUUAGUUGGUAAAUGCUUCAUGUUCAUGGAUGACACAAUGUUUUUGCAAAAAAACCCUGAAACUAUUCUUUGGCAUUGGUG | 0.478 |
| UCCUCAUGGGGCAGACGUGAUUGGCUCACAGUUGAAGUCAAAUCACUGCUUGGGCUGCUUGUAGCGGAAUCCUUGGAAAACAGUUGUUGAGGGCCUUGACAGAUCGGGCC | 2.56 |
| CCUGAGUGCAGAGUGUGUCCAUCUCGGCGUAUGGUGAAGGUGUCACUGGGUUCUGCAGCACUGGAGUUUCCAUGACCGCUCCCACAUCACCCCACCCUCGACUCUGGCAC | 0.395 |
| GCAUGAGCCUGUGUUCCCAGCUGCUUAGGAGGCUGAAGCAGGAGGAUUGAUUGAGCCUGCGAGGCCAAGGCUGCAGCAGGCUGUGAUUGCACCACUGCACUUCAGCUUGG | 4.73 |
| UUCUGGGAAGGGGUUUCUAACACUAGUCUGUGUGCUGUGGUUCCUGGGGUGCCCUCCACUGCCCUCUGUUCAGUAACAGGGCCUUGCUAAUCGGGUUGUCACUCAACAAA | 0.452 |
| CAGUGUCUAGCAAUGGUUUGGUUUGCAGAGAACACAGCCUGAUACUUAAUUUUCUUAAAACUAUUUUUAAUGAUCCACUAAACAAAGCAGGGGAUCCUGAAGCUGAUAUA | 0.504 |
| UUUUGUGACAUAUUGUCAUGCUGAGGUGUGACACCUGCUGCACUCAUCUGAUGUAAAACCAUCCCAGAGCUGGCGAGAGGAUGGAGCUGGGUGGAAACUGCUUUGCACUA | 0.455 |
| GAACAAAUGUGGCCUUCUCAUGCCAUUUCCAGUAAUGACGCAGAGGAGGACGUGUUGCCUCAGAACAUGGGGACUUCCUAGAGGUCUGCUGAGCCCACAGAAAGAGCCAG | 0.353 |
| GAUGACCUGGCCUACAGCAAAGGACCUUGAGCUUUAAAGUAUCACCUCCAUGGAAGCGGGGGCAUGCAAGGGCGAGACAGUUUUUCCUCAUCCCUUGCCAAGCUUCUCUU | 1.32 |

Series 3
Target: human cyclin A2
Read-out: peptide binding
Technique: competitive growth sequencing
Molecule type: peptide
Organism: Saccharomyces cerevisiae
Strain: cyclin A2-Cln2 fusion strain
Concentration: concentration not given
Notes: combined libraries
Baseline: unfused Cln2 strain
Reading: direction not given
| Molecule | binding score |
| --- | --- |
| GSPLKKLFTSTAL | 0.21 |
| GSPLKALFTSTGL | -0.0163 |
| GSPLKKLFTATGL | 1.32 |

Series 4
Target: CRIPT, C-terminal peptide
Technique: DHFR complementation, deep sequencing
Medium: yeast
Notes: single substitutions, model-inferred values
Baseline: wild type
Reading: higher = weaker binding
Parent: ERBIN, PDZ domain 1 (human); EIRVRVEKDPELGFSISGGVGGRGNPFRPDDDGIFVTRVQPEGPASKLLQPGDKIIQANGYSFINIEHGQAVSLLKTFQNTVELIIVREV; partner TKNYKQTSV
| Change | binding free energy change [kcal/mol] |
| --- | --- |
| F27G | 0.909 |
| Q40Y | 0.433 |
| L12K | 1.47 |
| L49M | -0.0389 |
| L75A | 0.628 |
| Q79K | -0.0439 |
| V20H | 0.0255 |
| N25F | 0.98 |
| Q40A | 0.275 |
| G52I | 0.62 |
| I56Y | 0.148 |

Series 5
Target: ABI1, truncated, D143A, DHFR fusion (Arabidopsis thaliana)
Technique: DHFR PCA, deep sequencing
Medium: yeast
Notes: methotrexate growth selection, single substitutions
Together with: (+)-ABA 2500 µM
Baseline: wild-type fitted maximum
Reading: higher = stronger binding
Parent: PYL1, truncated, DHFR fusion (Arabidopsis thaliana); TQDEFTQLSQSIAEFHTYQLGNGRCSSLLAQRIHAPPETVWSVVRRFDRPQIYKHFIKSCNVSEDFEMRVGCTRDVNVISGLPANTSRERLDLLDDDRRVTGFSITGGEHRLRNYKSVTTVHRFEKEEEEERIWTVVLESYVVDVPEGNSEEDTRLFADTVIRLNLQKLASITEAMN
| Change | relative binding score [%] |
| --- | --- |
| D159N | 93.9 |
| D92P | -1.47 |
| A158H | 77.3 |
| V145A | 89.9 |
| F66R | 94.1 |
| L94H | 108 |
| D159Y | 60.4 |
| T101A | 96.7 |
| V100N | 71.3 |
| R111M | 89.3 |
| H34E | 99 |
| E89S | 27.2 |
| E64S | 96.5 |
| E64Y | 91.4 |

Other studies, line by line
PRPF8: PRPF8 (Homo sapiens, UniProt Q6P2Q9)
| Molecule | tested on | test | system | conditions | how to read | endpoint | result |
| --- | --- | --- | --- | --- | --- | --- | --- |
| MFAP1 (Homo sapiens, UniProt P55081) | PRPF8 | cross-linking MS | cell fractions | together with: DSSO | – | cross-linked residues | K376 to K278 |
| PhoQ, residues 284 288 289 292 302 303 SCEHLI | PhoP, residues 12 14 15 18 19 IQFRS (Escherichia coli, UniProt P23836) | Sort-seq, measured: YFP reporter | E. coli | PhoQ-PhoP variant library, together with: 10 µM Mg2+ | baseline: high Mg2+ state, higher = stronger signaling | fold induction | 1.52 |
| FOXRED1 (Homo sapiens, UniProt Q96CU9) | DMAC2 (Homo sapiens, UniProt Q9NW81) | cross-linking MS | cell fractions | together with: DSSO | – | cross-linked residues | K184 to K148 |
| BUD31 (Homo sapiens, UniProt P41223) | PRPF8 | cross-linking MS | cell fractions | together with: DSSO | – | cross-linked residues | K125 to K36 |
| FYTTD1 (Homo sapiens, UniProt Q96QD9) | CHTOP (Homo sapiens, UniProt Q9Y3Y2) | cross-linking MS | – | hits only | – | interaction screen | cross-linked |

Excerpt of the above (series 1):
| Strand | log fluorescence |
| --- | --- |
| GACGGTATCCTTCGCCTGACGTGCTAG | 0.203 z-score |
| TTAGGACGGGGTATCGGTTAGTGCTAG | 2.74 z-score |
| GACGATTGCAGTTTCGAGACGTGCTAG | 4.18 z-score |
| GACGGACTGCTTTTCCTGAAGTGCTAG | -0.264 z-score |
